Measurements from different studies.
Every numbered part comes from another study and shows a few of its results, in no order. Values joined by “and” are separate records of one study, mostly repeats; a detail may differ.

Set 1
Target: 5-hydroxytryptamine receptor 1E (HTR1E, Homo sapiens, UniProt P28566)
Sequence of UniProt P28566 (whole entry, looked up): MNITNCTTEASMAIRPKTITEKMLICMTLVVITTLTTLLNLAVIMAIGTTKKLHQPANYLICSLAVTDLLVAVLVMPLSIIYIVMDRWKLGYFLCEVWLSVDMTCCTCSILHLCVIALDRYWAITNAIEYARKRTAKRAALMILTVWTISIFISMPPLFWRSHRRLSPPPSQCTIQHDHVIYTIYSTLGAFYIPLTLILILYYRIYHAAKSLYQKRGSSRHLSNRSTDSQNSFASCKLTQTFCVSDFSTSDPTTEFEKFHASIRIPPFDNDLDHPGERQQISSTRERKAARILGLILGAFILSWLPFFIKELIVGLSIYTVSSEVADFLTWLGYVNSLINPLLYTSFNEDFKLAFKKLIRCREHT
Observed: ligand displacement
Method: radioligand
Tested at: 10 µM
For `Cn1nc(C(=O)NCc2ccc(C(=O)O)cc2)cc1-c1ccc2[nH]ccc2c1`, the inhibition was 10.3%.
With `c1ccc(N2CCN(Cc3nc4ccccc4[nH]3)CC2)nc1` the inhibition was -8.72%.
With `O=C(c1ccc(F)cc1)N1CC(COc2ccc(Br)cc2)(C(=O)O)C1` the inhibition was 12.2%.
`Cc1ccc(-c2cnc([C@@]3(O)CC[C@H](C(=O)O)C(C)(C)C3)s2)cc1Nc1cccc(C(F)(F)F)n1` gave an inhibition of -12%.
With `CNCc1ccccc1-c1csc([C@H](C)Nc2nc(C)nc3cc(OC)c(OC)cc23)c1` the inhibition was 10.8%.
`O=C(Nc1cccnn1)N1CCC(=Cc2cccc(Oc3ccc(C(F)(F)F)cn3)c2)CC1` gave an inhibition of 19%.
`CCS(=O)(=O)c1cc2cc(C[C@](O)(CC(C)(C)c3ccc(F)cc3C(N)=O)C(F)(F)F)[nH]c2cn1` gave an inhibition of 4.75%.
`O=C(O)[C@@H]1[C@@H](Cn2nnc3ccccc3c2=O)CC[C@H]1C(=O)c1ccc(OCCC2CCOCC2)cc1` has an inhibition of 3.94%.
The inhibition of `CC(=O)C1=C(C)N(c2cccc(C(F)(F)F)c2)C(=O)N[C@@H]1c1ccc(C#N)nc1` is reported as 7.74%.
For `O=C(NCc1ncc(C(F)(F)F)cc1Cl)c1ccc2c(c1)C1(CCS(=O)(=O)CC1)[C@H](C1CC1)N2S(=O)(=O)c1ccc(F)cc1`, the inhibition was 10.4%.

Set 2
Target: Vascular endothelial growth factor receptor 3 (FLT4, Homo sapiens, UniProt P35916)
Sequence of UniProt P35916 (whole entry, looked up): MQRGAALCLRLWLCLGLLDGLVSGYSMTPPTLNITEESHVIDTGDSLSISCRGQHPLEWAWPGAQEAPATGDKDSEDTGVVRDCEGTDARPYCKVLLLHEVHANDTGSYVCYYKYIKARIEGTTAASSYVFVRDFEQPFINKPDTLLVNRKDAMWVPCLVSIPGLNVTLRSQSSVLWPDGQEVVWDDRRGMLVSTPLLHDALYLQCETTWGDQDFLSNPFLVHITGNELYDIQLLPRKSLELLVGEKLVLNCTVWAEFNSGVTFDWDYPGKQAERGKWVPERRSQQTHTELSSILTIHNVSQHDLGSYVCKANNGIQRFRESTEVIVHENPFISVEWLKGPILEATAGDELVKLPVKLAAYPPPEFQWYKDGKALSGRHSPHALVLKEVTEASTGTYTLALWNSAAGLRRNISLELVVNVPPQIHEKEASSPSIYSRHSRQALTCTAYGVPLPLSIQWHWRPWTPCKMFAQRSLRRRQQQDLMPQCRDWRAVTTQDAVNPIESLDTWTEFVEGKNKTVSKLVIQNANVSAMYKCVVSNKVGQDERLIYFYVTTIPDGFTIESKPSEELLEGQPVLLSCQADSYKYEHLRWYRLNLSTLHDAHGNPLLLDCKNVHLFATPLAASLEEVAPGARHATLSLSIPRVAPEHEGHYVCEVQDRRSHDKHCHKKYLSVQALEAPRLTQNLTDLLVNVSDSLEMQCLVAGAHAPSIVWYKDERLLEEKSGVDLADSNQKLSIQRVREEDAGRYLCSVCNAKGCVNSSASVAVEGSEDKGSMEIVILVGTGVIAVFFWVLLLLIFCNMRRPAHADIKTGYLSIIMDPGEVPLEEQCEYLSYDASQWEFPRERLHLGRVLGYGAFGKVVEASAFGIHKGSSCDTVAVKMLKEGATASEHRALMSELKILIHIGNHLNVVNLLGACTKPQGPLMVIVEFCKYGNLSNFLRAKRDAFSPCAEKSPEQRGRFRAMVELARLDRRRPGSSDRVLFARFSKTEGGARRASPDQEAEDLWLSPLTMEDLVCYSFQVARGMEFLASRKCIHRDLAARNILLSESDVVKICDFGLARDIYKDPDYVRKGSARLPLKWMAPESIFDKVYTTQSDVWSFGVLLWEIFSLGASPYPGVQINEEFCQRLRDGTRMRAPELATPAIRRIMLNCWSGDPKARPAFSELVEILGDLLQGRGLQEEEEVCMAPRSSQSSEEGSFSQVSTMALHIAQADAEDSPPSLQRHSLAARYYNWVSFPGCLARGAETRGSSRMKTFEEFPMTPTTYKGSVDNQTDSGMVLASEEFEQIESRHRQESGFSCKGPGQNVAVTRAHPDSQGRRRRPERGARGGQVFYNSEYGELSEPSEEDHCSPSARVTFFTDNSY
Observed: enzyme activity
Mode: inhibitor
Tested at: 0.5 µM
Baseline: control
`Cc1cn(-c2cc(NC(=O)c3ccc(C)c(Nc4nccc(-c5cccnc5)n4)c3)cc(C(F)(F)F)c2)cn1` gave a remaining activity of 91.7%.
For `O=c1cc(-c2cccc3c2Sc2ccccc2S3)oc(N2CCOCC2)c1`, the remaining activity was 104%.
With `N#Cc1c(NC(=O)c2cccc3ccccc23)sc2c1CCCC2` the remaining activity was 89.8%.
For `CCN(CC)CCNC(=O)c1c(C)[nH]c(/C=C2\C(=O)Nc3ccc(F)cc32)c1C`, the remaining activity was 17.4%.
The remaining activity of `CCN(CC)CCNC(=O)c1c(C)[nH]c(/C=C2\C(=O)Nc3ccc(Cl)cc32)c1C` is reported as 12.1%.
For `CN(C)C[C@H]1CCn2c(c(C3=C(c4cn(C)c5ccccc45)C(=O)NC3=O)c3ccccc32)C1`, the remaining activity was 114%.
For `CN([C@@H](Cc1ccc(OS(=O)(=O)c2cccc3cnccc23)cc1)C(=O)N1CCN(c2ccccc2)CC1)S(=O)(=O)c1cccc2cnccc12`, the remaining activity was 90.5%.
For `COc1cc2ncnc(Nc3ccc(O)c(Br)c3)c2cc1OC`, the remaining activity was 48.5%.
The remaining activity of `Cc1nc2cc3nc(-c4cccs4)cnc3cc2n1C` is reported as 86.2%.
For `O=C1c2ccccc2-c2n[nH]c3cccc1c23`, the remaining activity was 63.6%.
`COc1cc2ncnc(Nc3cccc(Cl)c3)c2cc1OC` has a remaining activity of 99.3%.
`c1ccc(-c2cnc(Nc3ccc(OCCN4CCCC4)cc3)s2)cc1` gave a remaining activity of 64.4%.
For `Cc1cc2ncc(-c3ccccc3)nc2cc1C`, the remaining activity was 115%.
For `C[C@@H]1CCN(C(=O)CC#N)C[C@@H]1N(C)c1ncnc2[nH]ccc12`, the remaining activity was 97.5%.
`Cn1nc2c3c(cccc31)C(=O)c1ccccc1-2` gave a remaining activity of 86.8%.
For `O=C1C(Cl)=C(N2C(=O)CCC2=O)C(=O)c2ccccc21`, the remaining activity was 102%.
`N#C/C(=C\c1ccc(O)c(O)c1)C(=O)NCc1ccccc1` gave a remaining activity of 87.7%.
`c1ccc(-c2[nH]ncc2-c2ccnc3ccccc23)nc1` has a remaining activity of 92.2%.
With `CCN(CC)C(=O)c1ccc(Nc2nc(OCC3CCCCC3)c3[nH]cnc3n2)cc1` the remaining activity was 25.9%.
`COc1cc2c(cc1OC)-c1[nH]nc(Nc3cccc(F)c3)c1C2` gave a remaining activity of 82.6%.
For `O=C(NC(NC(=S)Nc1ccc(F)c([N+](=O)[O-])c1)C(Cl)(Cl)Cl)C(c1ccccc1)c1ccccc1` (centres unmarked), the remaining activity was 102%.
`Ic1cccc(CSc2nnc(-c3ccncc3)o2)c1` gave a remaining activity of 96.2%.
The remaining activity of `Nc1cccc(-c2cc3c(Oc4cccc(O)c4)ncnc3[nH]2)c1` is reported as 15.8%.
`CCOc1nc(NC(=O)Cc2cc(OC)ccc2OC)cc(N)c1C#N` gave a remaining activity of 92.3%.
The remaining activity of `O=C(Nc1cccc(Nc2nccc(Nc3cccc(C(F)(F)F)c3)n2)c1)C1CC1` is reported as 95.9%.

Set 3
Cell line: mouse MPNST tumor cells
Method: high-content nuclear imaging
Measured: cell number
Tested at: 10 µM
Time: 12 h
Notes: mean of 2 replicates
Baseline: plate mean
Direction: higher = more cells
`N=C(NCCCCCCNC(=N)NC(=N)Nc1ccc(Cl)cc1)NC(=N)Nc1ccc(Cl)cc1` has a nuclei count of -5.24 z-score.
The nuclei count of `CCC(NC(C)C)C(O)c1ccc(O)c2[nH]c(=O)ccc12` (centres unmarked) is reported as 1.56 z-score.
For `CC(=O)N(CC(C)C(=O)O)c1c(I)cc(I)c(N)c1I` (centres unmarked), the nuclei count was -0.334 z-score.
With `Nc1nnc(-c2cccc(Cl)c2Cl)c(N)n1` the nuclei count was 0.529 z-score and 0.656 z-score.
For `Cc1oc(-c2cccs2)cc1C(=O)O`, the nuclei count was 0.83 z-score.
The nuclei count of `Clc1ccc2c(c1)CCc1cccnc1C2=C1CCNCC1` is reported as -3.24 z-score.
The nuclei count of `CC(C)(C)C1CCc2c(sc(NC(=O)c3ccco3)c2C(=O)O)C1` (centres unmarked) is reported as 1.25 z-score.
`CCN(CC)CC#CCOC(=O)C(O)(c1ccccc1)C1CCCCC1` (centres unmarked) gave a nuclei count of 2.03 z-score.
`COc1ccc(C[C@H](NC(C)=O)C(=O)N[C@H]2[C@@H](O)[C@H](n3cnc4c(N(C)C)ncnc43)O[C@@H]2CO)cc1` has a nuclei count of 1 z-score.
`Clc1ccc(Cn2c(CN3CCCC3)nc3ccccc32)cc1` has a nuclei count of 2.96 z-score and 4.88 z-score.

Set 4
Cell line: HaCaT
Tested at: 100 µM
Time: 36 h
`CN(C/C=C/C#CC(C)(C)C)Cc1cccc2ccccc12` has a viability of 57.7%.
With `CC(C)[C@@H]1CC[C@@H](C)C[C@H]1O` the viability was 93.6%.
`COC(=O)[C@@H]1CC2=CC(=O)CC[C@]2(C)[C@@]23O[C@@H]2C[C@@]2(C)[C@@H](CC[C@@]24CCC(=O)O4)[C@H]13` has a viability of 99.8%.
For `CCOC(=O)C(C)(C)Oc1ccc(Cl)cc1`, the viability was 65.8%.
The viability of `O=C1c2c(O)cccc2Cc2cccc(O)c21` is reported as 74.4%.
The viability of `CC1=NN(c2ccc(C)c(C)c2)C(=O)/C1=N\Nc1cccc(-c2cccc(C(=O)O)c2)c1O` is reported as 38.3%.
For `CN(C)CCC(c1ccccc1)c1ccccn1` (centres unmarked), the viability was 83.5%.
`O=C(O)C[C@H](O)C[C@H](O)/C=C/c1c(C2CC2)nc2ccccc2c1-c1ccc(F)cc1` gave a viability of 16.9%.
The viability of `N#Cc1cc(-c2n[nH]c(-c3ccncc3)n2)ccn1` is reported as 89.5%.
With `Cc1ccsc1C(=CCCN1CCC[C@@H](C(=O)O)C1)c1sccc1C` the viability was 70.7%.
`Cc1[nH]c2ccccc2c1CCNCc1ccc(/C=C/C(=O)NO)cc1` gave a viability of 6.37%.
For `C[C@]12CC[C@H](O)CC1=CC[C@@H]1[C@@H]2CC[C@]2(C)C(c3cccnc3)=CC[C@@H]12`, the viability was 45.1%.
`CC1Cc2ccccc2N1NC(=O)c1ccc(Cl)c(S(N)(=O)=O)c1` (centres unmarked) has a viability of 82.4%.
With `C[C@]12C=CC(=O)N[C@@H]1CC[C@@H]1[C@@H]2CC[C@]2(C)[C@@H](C(=O)Nc3cc(C(F)(F)F)ccc3C(F)(F)F)CC[C@@H]12` the viability was 73.5%.

Repeated from above (set 4):
For `C[C@]12CC[C@H](O)CC1=CC[C@@H]1[C@@H]2CC[C@]2(C)C(c3cccnc3)=CC[C@@H]12`, the viability was 45.1%.
The viability of `O=C1c2c(O)cccc2Cc2cccc(O)c21` is reported as 74.4%.
With `Cc1ccsc1C(=CCCN1CCC[C@@H](C(=O)O)C1)c1sccc1C` the viability was 70.7%.
For `CN(C)CCC(c1ccccc1)c1ccccn1` (centres unmarked), the viability was 83.5%.
With `C[C@]12C=CC(=O)N[C@@H]1CC[C@@H]1[C@@H]2CC[C@]2(C)[C@@H](C(=O)Nc3cc(C(F)(F)F)ccc3C(F)(F)F)CC[C@@H]12` the viability was 73.5%.
The viability of `N#Cc1cc(-c2n[nH]c(-c3ccncc3)n2)ccn1` is reported as 89.5%.
